Experimental data from different studies.
Numbered parts are unrelated; each lists some results of a single study.
Chain of UniProt P08581 (whole entry, looked up): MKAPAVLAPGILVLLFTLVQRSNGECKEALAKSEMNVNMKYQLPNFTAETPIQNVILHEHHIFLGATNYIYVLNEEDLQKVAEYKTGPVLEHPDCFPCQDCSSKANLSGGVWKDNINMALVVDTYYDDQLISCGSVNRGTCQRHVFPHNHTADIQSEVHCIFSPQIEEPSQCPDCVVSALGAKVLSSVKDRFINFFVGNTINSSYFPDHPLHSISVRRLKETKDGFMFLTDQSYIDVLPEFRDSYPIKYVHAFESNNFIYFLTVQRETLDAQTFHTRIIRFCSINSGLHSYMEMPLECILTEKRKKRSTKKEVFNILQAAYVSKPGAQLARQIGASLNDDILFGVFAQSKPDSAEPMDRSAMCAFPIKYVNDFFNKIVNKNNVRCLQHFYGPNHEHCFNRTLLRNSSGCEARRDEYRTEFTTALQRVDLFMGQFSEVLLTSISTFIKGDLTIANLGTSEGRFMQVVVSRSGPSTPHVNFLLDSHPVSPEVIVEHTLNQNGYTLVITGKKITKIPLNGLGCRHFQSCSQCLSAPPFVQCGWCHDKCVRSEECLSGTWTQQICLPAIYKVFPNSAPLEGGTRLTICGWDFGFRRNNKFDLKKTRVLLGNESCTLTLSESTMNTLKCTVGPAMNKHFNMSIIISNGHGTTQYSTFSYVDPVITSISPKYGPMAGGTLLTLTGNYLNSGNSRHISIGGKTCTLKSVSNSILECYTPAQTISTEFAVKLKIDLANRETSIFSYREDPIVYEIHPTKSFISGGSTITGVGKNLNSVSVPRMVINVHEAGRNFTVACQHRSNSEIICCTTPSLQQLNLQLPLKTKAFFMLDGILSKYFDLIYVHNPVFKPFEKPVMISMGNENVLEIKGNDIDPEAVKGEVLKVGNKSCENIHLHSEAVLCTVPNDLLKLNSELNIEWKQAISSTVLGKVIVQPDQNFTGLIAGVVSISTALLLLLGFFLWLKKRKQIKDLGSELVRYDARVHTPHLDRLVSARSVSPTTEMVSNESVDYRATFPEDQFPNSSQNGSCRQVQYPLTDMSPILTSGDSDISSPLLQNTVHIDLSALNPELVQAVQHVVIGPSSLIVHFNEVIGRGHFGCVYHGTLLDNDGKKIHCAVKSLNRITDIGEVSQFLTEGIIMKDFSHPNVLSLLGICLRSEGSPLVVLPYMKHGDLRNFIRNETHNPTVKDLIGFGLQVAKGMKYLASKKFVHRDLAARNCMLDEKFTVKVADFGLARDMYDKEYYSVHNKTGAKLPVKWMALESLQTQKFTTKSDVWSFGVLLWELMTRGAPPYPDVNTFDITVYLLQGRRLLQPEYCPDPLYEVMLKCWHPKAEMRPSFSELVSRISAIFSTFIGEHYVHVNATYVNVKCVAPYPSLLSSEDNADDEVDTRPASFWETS
Chain of UniProt Q7KZI7 (whole entry, looked up): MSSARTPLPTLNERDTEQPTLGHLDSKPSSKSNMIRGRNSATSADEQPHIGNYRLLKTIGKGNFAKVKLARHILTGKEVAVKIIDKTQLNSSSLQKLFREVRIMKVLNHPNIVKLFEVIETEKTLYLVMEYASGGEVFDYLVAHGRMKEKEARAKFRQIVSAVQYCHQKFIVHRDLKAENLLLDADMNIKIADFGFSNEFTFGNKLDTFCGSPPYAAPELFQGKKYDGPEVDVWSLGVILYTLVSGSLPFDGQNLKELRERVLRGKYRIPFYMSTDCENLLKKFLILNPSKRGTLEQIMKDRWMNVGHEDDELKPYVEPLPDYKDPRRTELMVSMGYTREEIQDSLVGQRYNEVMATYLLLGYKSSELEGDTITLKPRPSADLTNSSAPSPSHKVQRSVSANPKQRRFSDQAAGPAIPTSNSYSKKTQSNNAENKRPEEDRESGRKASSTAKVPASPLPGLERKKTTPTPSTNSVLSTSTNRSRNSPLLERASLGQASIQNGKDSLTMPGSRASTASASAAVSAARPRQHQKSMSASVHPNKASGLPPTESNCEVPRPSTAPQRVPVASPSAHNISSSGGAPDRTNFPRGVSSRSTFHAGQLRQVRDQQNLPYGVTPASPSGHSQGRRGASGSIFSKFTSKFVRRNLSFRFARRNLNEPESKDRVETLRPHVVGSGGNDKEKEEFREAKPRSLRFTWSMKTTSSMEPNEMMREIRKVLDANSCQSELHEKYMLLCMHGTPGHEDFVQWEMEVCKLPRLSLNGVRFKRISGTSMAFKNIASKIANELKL
Chain of UniProt Q9HAZ1 (whole entry, looked up): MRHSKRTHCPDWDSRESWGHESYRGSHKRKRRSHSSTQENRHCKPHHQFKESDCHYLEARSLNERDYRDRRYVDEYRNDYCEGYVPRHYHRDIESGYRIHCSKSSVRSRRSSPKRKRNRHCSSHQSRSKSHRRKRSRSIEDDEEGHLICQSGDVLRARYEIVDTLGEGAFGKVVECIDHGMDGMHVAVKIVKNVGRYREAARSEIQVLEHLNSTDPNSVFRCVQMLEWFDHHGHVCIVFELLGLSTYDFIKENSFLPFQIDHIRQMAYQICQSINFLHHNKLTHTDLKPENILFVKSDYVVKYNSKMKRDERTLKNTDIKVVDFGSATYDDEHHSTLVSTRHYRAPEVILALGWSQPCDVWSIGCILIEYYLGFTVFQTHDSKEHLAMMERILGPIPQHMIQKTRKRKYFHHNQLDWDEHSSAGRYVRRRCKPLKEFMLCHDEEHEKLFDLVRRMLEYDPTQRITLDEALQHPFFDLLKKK
Chain of UniProt O14965 (whole entry, looked up): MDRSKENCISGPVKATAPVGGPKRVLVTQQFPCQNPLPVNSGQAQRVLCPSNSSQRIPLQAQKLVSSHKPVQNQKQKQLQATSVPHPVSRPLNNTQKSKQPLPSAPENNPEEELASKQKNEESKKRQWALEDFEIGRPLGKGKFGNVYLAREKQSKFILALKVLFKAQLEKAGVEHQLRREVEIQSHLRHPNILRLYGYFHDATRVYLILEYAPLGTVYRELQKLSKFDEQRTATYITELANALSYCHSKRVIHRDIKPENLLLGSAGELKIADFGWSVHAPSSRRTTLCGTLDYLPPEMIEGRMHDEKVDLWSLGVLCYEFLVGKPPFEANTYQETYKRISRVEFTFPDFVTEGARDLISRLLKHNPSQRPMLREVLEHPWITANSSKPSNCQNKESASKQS
Chain of UniProt Q16539 (whole entry, looked up): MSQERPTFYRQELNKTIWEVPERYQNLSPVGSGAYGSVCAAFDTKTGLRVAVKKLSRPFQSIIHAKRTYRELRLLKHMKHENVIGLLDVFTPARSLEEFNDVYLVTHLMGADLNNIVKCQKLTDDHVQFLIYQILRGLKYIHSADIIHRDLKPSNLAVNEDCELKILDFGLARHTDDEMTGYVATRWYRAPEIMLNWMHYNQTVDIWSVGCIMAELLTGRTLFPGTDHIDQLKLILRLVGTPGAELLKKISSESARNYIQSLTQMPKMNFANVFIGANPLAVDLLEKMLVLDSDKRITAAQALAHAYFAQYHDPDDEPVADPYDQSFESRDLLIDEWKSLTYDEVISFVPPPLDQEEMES
Chain of UniProt P50750 (whole entry, looked up): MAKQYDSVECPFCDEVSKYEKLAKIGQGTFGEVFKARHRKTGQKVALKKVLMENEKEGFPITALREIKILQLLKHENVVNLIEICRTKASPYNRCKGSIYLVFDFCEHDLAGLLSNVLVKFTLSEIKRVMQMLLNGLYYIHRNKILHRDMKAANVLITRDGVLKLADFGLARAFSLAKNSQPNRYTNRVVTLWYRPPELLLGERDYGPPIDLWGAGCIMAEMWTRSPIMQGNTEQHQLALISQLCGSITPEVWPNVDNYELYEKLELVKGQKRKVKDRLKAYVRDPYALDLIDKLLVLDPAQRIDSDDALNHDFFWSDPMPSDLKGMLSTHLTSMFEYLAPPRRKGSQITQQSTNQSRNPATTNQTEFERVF
Chain of UniProt P49761 (whole entry, looked up): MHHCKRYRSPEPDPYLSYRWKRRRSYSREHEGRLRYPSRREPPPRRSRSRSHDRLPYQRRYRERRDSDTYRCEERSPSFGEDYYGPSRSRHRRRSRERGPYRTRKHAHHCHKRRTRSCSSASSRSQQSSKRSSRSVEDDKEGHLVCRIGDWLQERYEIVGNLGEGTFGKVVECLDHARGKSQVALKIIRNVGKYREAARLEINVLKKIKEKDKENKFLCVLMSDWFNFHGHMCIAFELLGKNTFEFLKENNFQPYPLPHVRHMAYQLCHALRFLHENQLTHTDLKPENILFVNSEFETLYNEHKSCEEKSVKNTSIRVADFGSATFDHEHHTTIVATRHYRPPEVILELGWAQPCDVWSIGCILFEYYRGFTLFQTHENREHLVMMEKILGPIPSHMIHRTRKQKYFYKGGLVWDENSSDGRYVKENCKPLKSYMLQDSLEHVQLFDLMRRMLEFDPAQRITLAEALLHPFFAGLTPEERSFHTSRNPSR
Chain of UniProt Q15349 (whole entry, looked up): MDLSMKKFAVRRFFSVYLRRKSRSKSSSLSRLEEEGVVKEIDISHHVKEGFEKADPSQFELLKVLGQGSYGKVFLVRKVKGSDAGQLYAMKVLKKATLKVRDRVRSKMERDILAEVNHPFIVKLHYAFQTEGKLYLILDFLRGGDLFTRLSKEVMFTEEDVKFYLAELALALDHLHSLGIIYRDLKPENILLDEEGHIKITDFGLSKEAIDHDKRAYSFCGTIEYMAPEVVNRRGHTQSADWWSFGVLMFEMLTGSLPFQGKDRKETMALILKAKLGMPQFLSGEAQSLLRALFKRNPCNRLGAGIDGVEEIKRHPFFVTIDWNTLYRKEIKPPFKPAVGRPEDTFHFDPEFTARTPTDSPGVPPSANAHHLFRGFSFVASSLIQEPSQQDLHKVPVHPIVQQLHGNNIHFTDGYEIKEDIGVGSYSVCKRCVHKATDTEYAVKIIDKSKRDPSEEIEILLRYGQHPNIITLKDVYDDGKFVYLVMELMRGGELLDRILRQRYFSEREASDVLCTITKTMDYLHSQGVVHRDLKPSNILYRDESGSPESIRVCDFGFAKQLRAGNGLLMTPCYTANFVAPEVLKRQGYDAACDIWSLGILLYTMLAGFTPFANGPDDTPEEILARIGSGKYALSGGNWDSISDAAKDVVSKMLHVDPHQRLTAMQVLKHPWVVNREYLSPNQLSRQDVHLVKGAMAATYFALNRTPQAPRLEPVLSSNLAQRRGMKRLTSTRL

Sample 1
Cell line: HaCaT
Tested at: 100 µM
Time: 18 h
| SMILES | viability [%] |
| --- | --- |
| c1ccc2[nH]c(-c3cscn3)nc2c1 | 74.5 |
| CC(C)C[C@H](NC(=O)[C@H](CCc1ccccc1)NC(=O)CN1CCOCC1)C(=O)N[C@@H](Cc1ccccc1)C(=O)N[C@@H](CC(C)C)C(=O)[C@@]1(C)CO1 | 27.9 |
| C[C@@H](O)[C@H]1C(=O)N2C(C(=O)O)=C(SCCN=CN)C[C@H]12 | 115 |
| COCCOC(=O)C1=C(C)NC(C)=C(C(=O)OC/C=C/c2ccccc2)C1c1cccc([N+](=O)[O-])c1 (centres unmarked) | 54.3 |
| Cc1ccc(C(=O)c2ccc(CC(=O)O)n2C)cc1 | 95.6 |
| CCOC(=O)C1=C(C)NC(C)=C(C(=O)OCC)C1c1ccccc1/C=C/C(=O)OC(C)(C)C | 18.3 |
| CCOc1nc2cccc(C(=O)O)c2n1Cc1ccc(-c2ccccc2-c2nnn[nH]2)cc1 | 113 |
| CCOc1nc2cccc(C(=O)OC(C)OC(=O)OC3CCCCC3)c2n1Cc1ccc(-c2ccccc2-c2nnn[nH]2)cc1 (centres unmarked) | 19.7 |

Sample 2
Compound: CCC(=O)Nc1ccc2ncnc(Nc3cccc(Br)c3)c2c1
Read-out: enzyme activity
Mode: inhibitor
Tested at: 0.5 µM
Baseline: control
| target | remaining activity [%] |
| --- | --- |
| RPS6KA4 (Homo sapiens, UniProt O75676) | 106 |
| MARK2 (Homo sapiens, UniProt Q7KZI7) | 73.5 |
| CLK3 (Homo sapiens, UniProt P49761) | 99.3 |
| PNCK (Homo sapiens, UniProt Q6P2M8) | 96 |
| MAPK14 (Homo sapiens, UniProt Q16539) | 82.8 |
| Cyclin-dependent kinase 9, with cyclin K (CDK9, Homo sapiens, UniProt P50750) | 94.1 |
| MAP2K1 (Homo sapiens, UniProt Q02750) | 105 |
| GRK4 (Homo sapiens, UniProt P32298) | 96.2 |
| Myosin-IIIb (MYO3B, Homo sapiens, UniProt Q8WXR4) | 135 |
| MET (Homo sapiens, UniProt P08581) | 103 |
| TXK (Homo sapiens, UniProt P42681) | 90.5 |
| CLK4 (Homo sapiens, UniProt Q9HAZ1) | 99.4 |
| MINK1 (Homo sapiens, UniProt Q8N4C8) | 95.8 |
| PRKG2 (Homo sapiens, UniProt Q13237) | 110 |

Sample 3
Cell line: mouse MPNST tumor cells
Technique: high-content nuclear imaging
Refers to: cell number
Tested at: 10 µM
Time: 12 h
Notes: mean of 2 replicates
Baseline: plate mean
Reading: higher = more cells
| Structure (SMILES) | nuclei count |
| --- | --- |
| COc1cc2c(cc1OC)CC(=O)N(CCCN(C)C[C@H]1Cc3cc(OC)c(OC)cc31)CC2 | 0.0637 z-score |
| CC(C)C[C@H](NC(=O)N1CCCCCC1)C(=O)N[C@H](Cc1cn(C)c2ccccc12)C(=O)N[C@H](Cc1ccccn1)C(=O)O | 0.558 z-score |
| CN1CCN(C(c2ccccc2)c2ccccc2)CC1 | 1.75 z-score |
| COc1ccc2[nH]c([S+]([O-])Cc3ncc(C)c(OC)c3C)nc2n1 (centres unmarked) | 1.49 z-score |
| Cc1ccccc1C(=O)N1CCc2cc(-c3nc(NC(=O)Cc4ccc5c(c4)OCO5)sc3C)ccc21 | 2.98 z-score |
| O=C(NCc1ccc(C(F)(F)F)cc1)Nc1cccc2cnccc12 | 1.6 z-score |
| CN1CCN(CC(=O)N2c3ccccc3C(=O)Nc3cccnc32)CC1 | 2.35 z-score |
| CC1=C(CC(=O)O)c2cc(F)ccc2/C1=C\c1ccc([S+](C)[O-])cc1 (centres unmarked) | -1.71 z-score |

Sample 4
SMILES: CCOC(=O)c1cc2cc(-c3cc(C(=O)NCc4ccc(C(=O)O)cc4)nn3C)ccc2[nH]1
Read-out: cell-free assay
Technique: competition with immobilised ligand
Tested at: 0.1 µM
| target | remaining binding [%] |
| --- | --- |
| Ribosomal protein S6 kinase alpha-2, C-terminal kinase domain (RPS6KA2, Homo sapiens, UniProt Q15349) | 84 |
| EIF2AK1 (Homo sapiens, UniProt Q9BQI3) | 91 |
| MET (Homo sapiens, UniProt P08581) | 96 |
| CDK8 (Homo sapiens, UniProt P49336) | 62 |
| SBK3 (Homo sapiens, UniProt P0C264) | 87 |
| MAP3K15 (Homo sapiens, UniProt Q6ZN16) | 100 |
| Aurora kinase A (AURKA, Homo sapiens, UniProt O14965) | 90 |
| ITK (Homo sapiens, UniProt Q08881) | 100 |

Some of these lines once more (sample 4):
| target | remaining binding [%] |
| --- | --- |
| CDK8 (Homo sapiens, UniProt P49336) | 62 |
| EIF2AK1 (Homo sapiens, UniProt Q9BQI3) | 91 |
